{"data": "Measurements collected from several papers", "note": "A part holds a random share of what one study measured. Substitutions count along the parent as printed.", "sequence of UniProt Q9UBX1 (whole entry, looked up)": "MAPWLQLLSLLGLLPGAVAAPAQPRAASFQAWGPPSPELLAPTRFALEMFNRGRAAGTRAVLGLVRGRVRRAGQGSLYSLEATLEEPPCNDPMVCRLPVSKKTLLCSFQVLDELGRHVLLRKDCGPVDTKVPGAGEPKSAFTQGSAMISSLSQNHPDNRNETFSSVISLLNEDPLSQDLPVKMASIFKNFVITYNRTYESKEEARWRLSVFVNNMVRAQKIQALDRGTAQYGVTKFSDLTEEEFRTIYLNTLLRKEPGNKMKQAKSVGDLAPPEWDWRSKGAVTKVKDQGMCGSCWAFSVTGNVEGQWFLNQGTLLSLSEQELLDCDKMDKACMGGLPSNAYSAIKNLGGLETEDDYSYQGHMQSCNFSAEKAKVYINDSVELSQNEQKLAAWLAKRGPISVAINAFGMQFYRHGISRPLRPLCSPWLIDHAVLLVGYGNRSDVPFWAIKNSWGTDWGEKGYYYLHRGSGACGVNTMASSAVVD"}
{"data": "Series 1", "target": "HLA class I histocompatibility antigen, A alpha chain, allele A*25:01 (Homo sapiens, UniProt P04439)", "observed": "peptide-MHC binding", "form": "peptide", "concentration": "concentration not given"}
{"Sequence": "PSYQLPLPM", "binding": "inactive"}
{"Sequence": "YFYYNAFHWAI", "binding": "inactive"}
{"Sequence": "YADGGQWYN", "binding": "inactive"}
{"Sequence": "RTYSLLNRK", "binding": "inactive"}
{"Sequence": "MHGHGKHIL", "binding": "inactive"}
{"Sequence": "LKEKSSLRY", "binding": "inactive"}
{"Sequence": "LPYPVLLKI", "binding": "inactive"}
{"data": "Series 2", "target": "UBE2D2 UBC core domain (UniProt P62837)", "method": "yeast two-hybrid", "sample": "yeast", "notes": "mostly zero background", "relative to": "not given", "reading": "higher = stronger interaction", "B1": "RNF31 RING domain (UniProt Q96EP0); chain AFLRRLLAQECAVCGWALPHNRMQALTSCECTICPDCFRQHFTIALKEKHITDMVCPACGRPDLTDDTQLL", "B2": "DEF8 RING domain (UniProt Q6ZN54); chain AGRLGCSLTEIHTLFAKHIKLDCERCQAKGFVCELCREGDVLFPFDSHTSVCADCSAVFHRDCYYDNSTTCPKCARLSLRK", "sequence of UniProt P62837 (whole entry, looked up)": "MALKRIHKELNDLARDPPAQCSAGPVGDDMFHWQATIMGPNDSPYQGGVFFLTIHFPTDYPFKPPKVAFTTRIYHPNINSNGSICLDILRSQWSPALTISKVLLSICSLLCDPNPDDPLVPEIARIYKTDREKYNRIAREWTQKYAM"}
{"Sequence": "FVKTVEDKYKCEKCHLVLCSPKQTECGHRFCESCMAALLSSSSPKCTACQESIVKDKVF (TRAF3 RING domain (UniProt Q13114))", "lacZ reporter activity": 0}
{"Sequence": "MNDVLENELQCIICSEYFIEAVTLNCAHSFCSYCINEWMKRKIECPICRKDIKSKTYSL (RNF8 RING domain (UniProt O76064))", "lacZ reporter activity": 0}
{"Sequence": "AEADPLGRFTCPVCLEVYEKPVQVPCGHVFCSACLQECLKPKKPVCGVCRSALAPGVRAV (RNF114 RING domain (UniProt Q9Y508))", "lacZ reporter activity": 0}
{"Sequence": "B1 (RNF31 RING domain)", "lacZ reporter activity": 0}
{"Sequence": "LDAASGHPLVCPLCHGQYERPCLLDCFHDFCTGCLRGRATDGRLSCPLCQHQTLVKGPSG (Rnf207 RING domain (UniProt Q3V3A7))", "lacZ reporter activity": 0}
{"Sequence": "B2 (DEF8 RING domain)", "lacZ reporter activity": 0}
{"data": "Series 3", "target": "CCND3, cyclin fold, Cln2 fusion (human)", "method": "yeast growth competition, sequencing", "sample": "yeast", "notes": "weak parent motif", "relative to": "not given", "reading": "higher = stronger binding", "starting sequence": "viral docking peptide; KGVKRKLFAEDSS; partner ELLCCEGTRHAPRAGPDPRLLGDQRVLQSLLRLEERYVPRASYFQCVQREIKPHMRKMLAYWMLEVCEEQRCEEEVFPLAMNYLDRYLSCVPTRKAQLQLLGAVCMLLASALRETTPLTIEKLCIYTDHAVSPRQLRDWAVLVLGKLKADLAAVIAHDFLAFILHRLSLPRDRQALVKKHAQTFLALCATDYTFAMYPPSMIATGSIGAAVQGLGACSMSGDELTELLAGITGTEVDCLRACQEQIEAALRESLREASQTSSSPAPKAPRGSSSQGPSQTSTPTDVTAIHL"}
{"Variant": "KGVKRKLFAHDSS [E10H]", "normalised enrichment score": 0.0969}
{"Variant": "KGNKRKLFAEDSS [V3N]", "normalised enrichment score": 0.454}
{"Variant": "KGVKRKFFAEDSS [L7F]", "normalised enrichment score": 0.316}
{"Variant": "KGAKRKLFAEDSS [V3A]", "normalised enrichment score": 0.378}
{"Variant": "KGVKNKLFAEDSS [R5N]", "normalised enrichment score": 0.149}
{"Variant": "KGVKRKLIAEDSS [F8I]", "normalised enrichment score": 0.303}
{"Variant": "KGVKRKLFAEDGS [S12G]", "normalised enrichment score": -0.133}
{"Variant": "KGQKRKLFAEDSS [V3Q]", "normalised enrichment score": -0.0839}
{"Variant": "KMVKRKLFAEDSS [G2M]", "normalised enrichment score": 0.141}
{"Variant": "KGVKRKLFAEDMS [S12M]", "normalised enrichment score": -0.261}
{"Variant": "KGVKRKLFAEDHS [S12H]", "normalised enrichment score": -0.33}
{"Variant": "KGVKRKGFAEDSS [L7G]", "normalised enrichment score": 0.274}
{"Variant": "KGVKRFLFAEDSS [K6F]", "normalised enrichment score": -0.151}
{"Variant": "KGVYRKLFAEDSS [K4Y]", "normalised enrichment score": -0.0904}
{"data": "Single results of other studies", "B3": "cystatin C; sequence looked up; chain SSPGKPPRLVGGPMDASVEEEGVRRALDFAVGEYNKASNDMYHSRALQVVRARKQIVAGVNYFLDVELGRTTCTKTQPNLDNCPFHDQPHLKRKAFCSFQIYAVPWQGTMTLSKSTCQDA"}
{"Sequence": "B3 (cystatin C)", "target": "Cathepsin F (Homo sapiens, UniProt Q9UBX1)", "test": "enzyme activity, inhibitor", "setting": "10 µM", "quantity": "inhibition", "value": "89%"}
